Results gathered from unrelated publications.
Lines come from different studies, so protocols differ. Several values in a cell are separate wells, animals, samples, runs or records. Numbers after ± are the reported error.
PLCG2 residues 1-1195: 1-phosphatidylinositol 4,5-bisphosphate phosphodiesterase gamma-2, residues 1-1195 (PLCG2, Homo sapiens, UniProt P16885)
MTNR1A: Melatonin receptor type 1A (MTNR1A, Homo sapiens, UniProt P48039)
ESR1: Estrogen receptor (ESR1, Homo sapiens, UniProt P03372)

| SMILES | target | assay | system | setting | EC50 |
| --- | --- | --- | --- | --- | --- |
| CNc1ncnc2c1ncn2C1OC(CO)C(O)C1O (stereo not drawn) | Adenosine receptor A1 (ADORA1, Homo sapiens, UniProt P30542) | G protein activation, agonist |  |  | 1100 nM |
| O=C(O)Cc1ccccc1Nc1c(Cl)cccc1Cl | PLCG2 residues 1-1195 | enzyme activity, activator | lipid vesicles | 15 min preincubation, with: XY-69 substrate 0.5 µM | 51000 nM |
| CC1=NC(C)C(C)S1 (stereo not drawn) | uncharacterized protein (Mus musculus, UniProt A0A140T8K4) | cAMP, agonist | HEK293 transfected with uncharacterized protein |  | 53600 ± 3960 nM |
| O=C(NC[C@@H](Cc1ccc(F)cc1)N1CCC(O)(C(F)(F)F)CC1)C1(c2ccc(Cl)cc2)CCCC1 | Transient receptor potential cation channel subfamily A member 1 (TRPA1, Homo sapiens, UniProt O75762, L881I) |  |  |  | 9300 nM |
| CC(C)Oc1cc(Cl)ccc1CNc1cc(-c2ccccc2)nc2ncnn12 | G-protein coupled receptor 3 (GPR3, Homo sapiens, UniProt P46089, L136A) | cAMP level, agonist |  |  | 3020 nM and 2570 nM and 1820 nM and 3310 nM |
| CCCC[C@H](NC(=O)[C@H](Cc1ccccc1)NC(=O)[C@H](Cc1c[nH]cn1)NC(=O)CCNC(=O)[C@@H](NC(=O)[C@H](C)NC(=O)[C@H](Cc1c[nH]c2ccccc12)NC(=O)[C@H](CCC(N)=O)NC(=O)[C@H](N)Cc1ccccc1)C(C)C)C(N)=O | Gastrin-releasing peptide receptor (GRPR, Homo sapiens, UniProt P30550) | calcium signal, agonist |  |  | 15.1 nM |
| CCCCCCCC/C=C\CCCCCCCC(=O)NCCO | Transient receptor potential cation channel subfamily V member 1 (Trpv1, Mus musculus, UniProt Q704Y3, S513T) | ion current, agonist, whole-cell patch clamp |  | 24 °C, S513T, +80 mV | 740 ± 140 nM |
| Cc1cccc2[n+]1[Rh-3]13([c]4ccccc4-c4ccc5ccc(Cl)cc5[n+]41)([c]1ccccc1-c1ccc4ccc(Cl)cc4[n+]13)[n+]1c(C)cccc1-2.F[P-](F)(F)(F)(F)F | Cyclin-dependent kinase 9, with cyclin T1 (CDK9, Homo sapiens, UniProt P50750) | enzyme activity |  |  | 125 ± 8.4 nM |
| Cc1cc(C)c(S(=O)(=O)Nc2cccc(C(F)(F)F)c2)c(C)c1 | PLCG2 residues 1-1195 | enzyme activity, activator | lipid vesicles | 15 min preincubation, with: XY-69 substrate 0.5 µM | 73000 nM |
| COc1cc(I)c(Cc2cc(OC)c(OC)cc2CC(=O)OC(C)(C)C)cc1OC | MTNR1A | β-arrestin recruitment, agonist |  |  | 1780 nM |
| CC(C)(C(=O)N1CCC(Nc2nc3c(c(=O)[nH]2)CCCC3)CC1)c1ccc(Cl)cc1 | MRGPRD (Homo sapiens, UniProt Q8TDS7) | β-arrestin recruitment, agonist |  |  | 51.7 nM |
| O=C(O)c1ccccc1OCc1ccccc1Br | Ras-related protein Rab-2A (Canis lupus familiaris, UniProt P61105) | GTP binding, flow cytometry bead |  | EDTA buffer, with: 100 nM BODIPY-GTP | 251 nM |
| O=C(Nn1c(-c2cccc(Cl)c2)nc2ccccc2c1=O)c1ccccc1 | TRPM channel TRPM_PZQ (Schistosoma mansoni, UniProt A0A5K4F0X5) | whole-cell inward current, activator, automated patch clamp | HEK293 |  | 110 ± 20 nM |
| COc1cc(C2C(NC(=O)c3ccc(NC(=O)OC(C)(C)C)cc3)(C(=O)O)C(c3ccc(OC(=O)c4cccs4)c(OC)c3)C2(NC(=O)c2ccc(NC(=O)OC(C)(C)C)cc2)C(=O)O)ccc1OC(=O)c1cccs1 (stereo not drawn) | Glucagon-like peptide 1 receptor (GLP1R, Homo sapiens, UniProt P43220, K202A) | cAMP, agonist |  |  | 45.7 nM |
| CC(=O)N[C@@H]1[C@@H](O[C@@H]2O[C@H](C(=O)O)[C@@H](O[C@@H]3O[C@H](COS(=O)(=O)O)[C@@H](OS(=O)(=O)O)[C@H](O[C@@H]4O[C@H](C(=O)O)[C@@H](O[C@@H]5O[C@H](COS(=O)(=O)O)[C@@H](OS(=O)(=O)O)[C@H](O[C@@H]6O[C@H](C(=O)O)[C@@H](OS(=O)(=O)O)[C@H](OS(=O)(=O)O)[C@H]6OS(=O)(=O)O)[C@H]5NC(C)=O)[C@H](OS(=O)(=O)O)[C@H]4OS(=O)(=O)O)[C@H]3NC(C)=O)[C@H](OS(=O)(=O)O)[C@H]2OS(=O)(=O)O)[C@H](OS(=O)(=O)O)[C@@H](COS(=O)(=O)O)O[C@H]1N=[N+]=[N-] | Fibroblast growth factor 2 (Homo sapiens, UniProt P09038) | fluorescence polarization competition |  | Fibroblast growth factor 2 23 nM, with: TAMRA-labelled probe | 45 ± 9 nM |
| COc1ccc2[nH]c(-c3cccc4ccccc34)c(CCNC(=O)CI)c2n1 | MTNR1A | β-arrestin recruitment, agonist |  |  | 4790 nM |
| Oc1ccc(C2COc3cc(O)ccc3C2)cc1 (racemic) | ESR1 | array formation, agonist | ERα-GFP PRL-HeLa | 1 h | 35.3 nM |
| Nc1ncnc2c1ncn2[C@@H]1O[C@H](COP(=O)(O)OP(=O)(O)OC[C@H]2OC(O)[C@H](O)[C@@H]2O)[C@@H](O)[C@H]1OP(=O)(O)O (stereo partly drawn) | TRPM2 (Nematostella vectensis, UniProt A7T1N0, T702A) | agonist |  |  | 240 ± 20 nM |
| Cn1c(=O)[nH]c(=O)c2c1nc(CN1CCN(c3cccc(Cl)c3)CC1)n2Cc1cccc(Cl)c1 | PLCG2 residues 1-1195 | enzyme activity, activator | lipid vesicles | 15 min preincubation, with: XY-69 substrate 0.5 µM | 21000 nM |
| CC[C@H](C)[C@H]1C(=O)N(Cc2cc3ccccc3c3ccccc23)C[C@@H]2N(C(=O)NCCCC(F)(F)F)CCC(=O)N12 | ATP-dependent Clp protease proteolytic subunit, mitochondrial (CLPP, Homo sapiens, UniProt Q16740) | activator |  |  | > 100000 nM |
| CC[C@H]([C@H](C)c1ccc(O)cc1)[C@@H](CC)c1ccc(O)cc1 | ESR1 | reporter gene, luciferase reporter (3xERE) | 293T | 24 h | 2.15 nM |

Some of these lines once more:
| SMILES | target | assay | system | setting | EC50 |
| --- | --- | --- | --- | --- | --- |
| CNc1ncnc2c1ncn2C1OC(CO)C(O)C1O (stereo not drawn) | Adenosine receptor A1 (ADORA1, Homo sapiens, UniProt P30542) | G protein activation, agonist |  |  | 1100 nM |
| O=C(O)c1ccccc1OCc1ccccc1Br | Ras-related protein Rab-2A (Canis lupus familiaris, UniProt P61105) | GTP binding, flow cytometry bead |  | EDTA buffer, with: 100 nM BODIPY-GTP | 251 nM |
